Measurements of several laboratories.
Every numbered part comes from another study and shows a few of its results, in no order. Changes are numbered by the printed parent chain.

Sample 1 — technique: DHFR PCA, deep sequencing; medium: yeast; with: (+)-ABA 2500 µM; reference: wild-type fitted maximum; reading: higher = stronger binding
Target: ABI1, truncated, D143A, DHFR fusion (Arabidopsis thaliana)
Setting: methotrexate growth selection, single substitutions
Parent: PYL1, truncated, DHFR fusion (Arabidopsis thaliana); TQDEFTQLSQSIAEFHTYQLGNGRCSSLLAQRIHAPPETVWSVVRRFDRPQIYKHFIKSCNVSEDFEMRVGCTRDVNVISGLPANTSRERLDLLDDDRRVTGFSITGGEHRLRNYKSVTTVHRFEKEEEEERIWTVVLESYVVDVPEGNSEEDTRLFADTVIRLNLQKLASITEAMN; partner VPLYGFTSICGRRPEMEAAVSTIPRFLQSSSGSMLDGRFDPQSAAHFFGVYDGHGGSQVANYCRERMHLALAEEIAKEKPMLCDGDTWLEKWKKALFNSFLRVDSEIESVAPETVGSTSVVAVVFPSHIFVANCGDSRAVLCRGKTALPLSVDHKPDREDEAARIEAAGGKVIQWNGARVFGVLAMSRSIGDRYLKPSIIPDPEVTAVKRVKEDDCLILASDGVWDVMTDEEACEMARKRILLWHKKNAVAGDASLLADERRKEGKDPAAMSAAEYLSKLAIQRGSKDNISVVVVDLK
Variant	relative binding score
S117Q	99%
T160N	92.8%
E139A	91.1%
C60Q	50%
R155H	89.1%
D95Y	80.9%
V142P	-5.29%
Q31F	79.3%
T106N	93.4%
D95W	80.8%
S150Q	88.4%
V145T	93.4%
C72T	92.6%
Y18F	104%
E14Y	79.8%
D65K	95.6%
T119G	2.31%
R49M	91.8%
Y141L	11.1%
V76H	51.8%
L28D	22.1%
S150A	89.6%

Sample 2 — technique: RNA Bind-n-Seq; form: RNA; medium: in vitro; tested at: 365 nM; reference: no-protein control; reading: higher = stronger binding
Target: RNA binding protein fox-1 homolog 2, RRM domain, GST-SBP tag (RBFOX2, Homo sapiens, UniProt O43251-10, residues 100-194)
Setting: natural RNA segment, single round, ends assumed
Constant ends, left off below: GGGAGUUCUACAGUCCGACGAUC … UGGAAUUCUCGGGUGCCAA
Residues (chain): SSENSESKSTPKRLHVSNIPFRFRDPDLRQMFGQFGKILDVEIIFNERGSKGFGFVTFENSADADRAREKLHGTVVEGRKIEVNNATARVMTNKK
Strand	RBNS enrichment (R)
GCCUGUCGCUACCUGGGGCUGUGGCAGCGGAAGUGUUUAGUGACAAGUGGGUCUGGGCAGCUUCCCCUGAGCUUACGUUUUGUUUUGUUUUGUUUUUUCGAUGUGAAUAG	2.22
UUUAUUUCUCACCAAAAUAAAAGCAUUUAUGAGAAUUAUAAGUAAAGCUUUCUGUAUUUCAGAGAGACAUAAGUUACUAGAAAGUGAAAAGUGAAUAAAUAAGUCACAGA	0.58
UUCACUCAAGGCUUUGUUUCCAGAGGCCAGCUAGGCUGUCACAGGCAGGAAUCCCUUCCCAUCUGCUUUGUGAAGGGUCCCAUACAGGUGUAUCUAGACUUCAAGGACAG	0.39
AAUUUGGGGGACAUGCUAAAUAACUAUAUAAGACAUUAAGAGAACAAAGAGUGAAAUAUUGUAAAUGCUAUUAUACUGUUAUCCAUAUUACGUUGUUUCUUAUAGAUUUU	0.764
AGCUGGACGUAUAUAAAGGGUCCUCGUGCUUGUUCUUUGCCAGUUCCCACUAGAAAAGGCGCUCCUGUGGUGGCCACCUCUGUCUUCCUACUGAGAACUUCCUGUUCCAG	0.291
CCCCCCGGCAGCUUGACACUGAAUCCAGUGUCAAUUUGGGGAGAAAGCAGUUUUGUCUUGGAAUUUUGUAUGUUGUAGGAAUCCUUAGAGAGUGUGGUUCCUUCUGAUGG	1.59
GCUCACUAGCAGGACACUGAAGGGUGUCCUUCAUCAUUAAGGCAGUGUGAUGUCAUGUUUGGUCAUUUUUCUUUUGUCCAGGGAAUGGAUAAUGACAUUCUGUCACCCAC	0.376
AAAAGCAUAAAGGGCUGCCUAGUACCGCCCGUUCCCUCCACGCCAGGUGGAGACUACAAGGAGACUGGGCGAACCACACCGUCUCCCUGCAUGGCCUUCCCUUCCUCUAG	0.434
ACACCAACAUGUUGGGAAACUUGGCUCGAAUCUCUGUGCCUUCGUCUUUCCCAUGGGGAGGGAUUCUGGUUCCAGGGUCCCUCUGUGUAUUUGCUUUUUUGUUUUGGCUG	0.299
AGAUUUUUUCUGGUCCAUUUCCCAUUUCCUUUUCUUCCCUGACCCCCAUACCCUCACCCUUAAAAUUCUCCUGUAACUCAACUAACAAAAUCAAGCCUGAUUCAAAACAU	1.18
CUUUUCUGCCUUGAGGGGCAGUUUUGGGAGAUGAAAGGGAUUAGUGUGGACCCAGUCUAGGCACCCCAGUACUUCCCUUCACCUUGUAGAAAAUGGUAAUGAAAGGGCAU	0.59
AUGUGUAAGAGUCUUUCUGUAUGACGAACUACAUGGAAAAGACUUCUGUGGACAUAAUUCUGACCGAAACCCAUGAAGUUACUUCAGUAUAAGAAGAACGUUACACGGAA	0.286

Sample 3 — technique: RNA Bind-n-Seq; form: RNA; medium: in vitro; tested at: not given; reference: input RNA pool; reading: higher = stronger binding
Target: RING finger protein unkempt homolog, zinc fingers 1-6, GST-SBP tag (UNK, Homo sapiens, UniProt Q9C0B0, residues 30-357)
Setting: RNA with constant flanks, human and mouse sites, ends assumed
Constant ends, left off below: GGGAGUUCUACAGUCCGACGAUC … CAACAGAGGAUUGAGCAUCA
Residues (chain): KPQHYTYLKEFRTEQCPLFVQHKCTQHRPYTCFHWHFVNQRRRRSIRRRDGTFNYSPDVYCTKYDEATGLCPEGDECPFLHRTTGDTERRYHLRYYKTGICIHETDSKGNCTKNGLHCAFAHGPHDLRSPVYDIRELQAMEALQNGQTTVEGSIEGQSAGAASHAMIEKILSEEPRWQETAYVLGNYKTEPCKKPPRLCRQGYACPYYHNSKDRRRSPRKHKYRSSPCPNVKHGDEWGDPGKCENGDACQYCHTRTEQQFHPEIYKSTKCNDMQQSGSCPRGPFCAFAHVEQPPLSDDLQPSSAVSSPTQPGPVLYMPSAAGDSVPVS
Strand	bound/input enrichment [ratio]
UUUACUGUUUUGGGGAGCACAGCAAGAGAGAGAGCUAAACACUCAGGCGACUACUUUACUCUUUUAAGACACCUUCUUAAUUACGCUUACAAUAGUAAUAUUAAUGUACCCAAUGCUGAA	1.2
GUUUUUAGAAGUUAUGAACCUGGUGAACCAAACUGCAGAAUUUAUGUAAAGAAUUUAGCUAGACAUGUUCAGGAAAAGGACCUUAAAUUUAUAUUUGGAAGAUACGUUGACUUUUCUUCA	3.43
AUGUCCUUUCCUCUGGACAAUGUUGACAUAGGAUUCAGGAAUCAGGUUGAUGACAUUCGAAGCUUUUUGGAUUCCAGACAUCUUGACCACUACACAGUAUACAAUCUGUCACCUAAGUCU	0.0828
AAAAAGGAGAAACCUCUUCCAAGACUUAAUAUCCAUUCUGGAUUCUGGAUUUUGGCAUCCAUUGUUGUGACCUAUUAUGUUGACUUCUUUAAAACCCUUAAAGAAAACUUCCACACUAGC	0.442
AGAUUCCCCCUCCUGAGACCUCCUCCGAAGUUGGAGUCUCUUACAGAUGCCUCAUCCCCUGUUAGCGUUUUAGUUUGGACCACCCAGCCUUGGACAAUUCCCGCCAACCAGGCAAUUUGC	0.903
CUUCAGCAAGGUGGCCGCAUGCUCCCUGAGCUCUUCCAGUGUCACGGCUCUGCAGAUAACCUAGUUCUGCAUGCUUGGGGCAAGGAGACAAACUCAAAACUGAAAUCUCUAGGAGUGAGC	0.0973
AACAUUAAUGGAACCUCCUACCCUAGUCUACAGCAGAAAACCAAUGCUGUUAAGAAAUUACAUAAAUGUGAUGAAUGUGGGAAAUCCUUCAAAUAUAAUUCCCGCCUUGUUCAACAUAAA	20.7
AAGAGUCCAGUGAUGAUGAUGAUGAGGAGGACCAAAAGAAACAGCCUGUCCAGAAGGGAGUUAAGCCCCAAGCCAAGGCAGCCAAAGCUCCUCCUAAGAAGGCCAAGAGCUCUGAUUCUG	0.0473
CCCUCCCCGCUCCCCGCGUCCGCCGCGUCCGCCCCGGCACCUCUCCACCCGCCGCUCGCCGCGCUCCGGGCUGCCCUCGUCCGUGCGCGCCGUGGCCGGCCGAGCGGGCGGCGCGUUGAU	1.32
UUAAGGAUUCCACUCCACCCUUUUUCUCCUCUUCCAGGAAAGGGAGGUGAAAGAAUUGUAUUUUUCUCCCAGCUCUAAAUCAUCUAUGUGUUAAAUAUCCGUACCGAUCUGUCUUGAAGA	0.337
GACCUUUAUGCCAAUGUCCGGCCAUGUGUCUCAAUUGAAGGUUAUAAAACCCCUUACACGGAUGUAAAUAUCGUCACCAUCCGAGAGAACACGGAAGGAGAAUACAGUGGAAUUGAGCAU	0.201

Sample 4 — technique: protein-binding microarray; form: double-stranded DNA, one strand shown; medium: in vitro; tested at: 2200 nM top; setting: 60-bp whole probe; with: salmon DNA 0.4 mg/ml; reference: random background probes; reading: higher = stronger binding; constant ends, left off below: GCCTAGCAC … GTCTTGATTCGCTTGACGCTGCTG
Target: Interferon regulatory factor 7, full length, phosphomimetic (IRF7, Homo sapiens, UniProt Q92985, residues 1-503, S471D/S472D/S475D/S476D/S477D/S483D/S484D/S487D)
Target sequence (chain): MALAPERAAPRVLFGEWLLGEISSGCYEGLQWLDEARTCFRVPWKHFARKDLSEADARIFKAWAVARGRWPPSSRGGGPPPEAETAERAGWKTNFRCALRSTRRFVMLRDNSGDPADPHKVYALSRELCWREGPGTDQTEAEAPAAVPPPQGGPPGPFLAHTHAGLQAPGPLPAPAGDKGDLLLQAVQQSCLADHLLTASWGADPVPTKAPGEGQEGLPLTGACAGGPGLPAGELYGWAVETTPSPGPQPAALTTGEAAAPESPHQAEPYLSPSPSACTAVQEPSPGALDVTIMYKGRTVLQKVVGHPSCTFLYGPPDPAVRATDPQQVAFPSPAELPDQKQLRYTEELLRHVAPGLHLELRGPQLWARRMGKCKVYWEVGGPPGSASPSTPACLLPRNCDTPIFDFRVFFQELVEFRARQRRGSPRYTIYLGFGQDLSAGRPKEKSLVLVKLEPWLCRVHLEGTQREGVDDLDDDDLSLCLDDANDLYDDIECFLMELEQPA
Strand	fitted relative affinity
GACGGTCTCCCTTTCCTGACGTGCTAG	1.44 z-score
TTAGGGCTGGACACTGGGTTAGTGCTA	-1.31 z-score
GACGATATCAGTCACGAGACGTGCTAG	0.225 z-score
AGGGTCCCGCGATTCGACACGTGCTAG	-0.14 z-score
TTAGCTATCGACTTTCGGTTAGTGCTA	6.09 z-score
TCAAATCTTTTTCCCTAACTGTGCTAG	0.858 z-score
TCATGTCTCTGTCCCTGACTGTGCTAG	1.89 z-score
CCCCCAATCTCTCTTCACATGTGCTAG	0.186 z-score
GAAAGAATCACAACTAGGAAGGTGCTA	-0.575 z-score
GACGGTTTCCTTTTCATGACGTGCTAG	4.67 z-score
GACGATAACAGACTGGAGACGTGCTAG	-0.267 z-score
TTAGGTATCGGTTTCTGTTAGTGCTAG	3.9 z-score
GACGGACGGGGTATCGGGACGTGCTAG	-0.671 z-score
TCAGCTTTCCTGATGACACTGTGCTAG	1.83 z-score
ATAGGACTGCTTCTCCTTTAGTGCTAG	0.899 z-score
TTAGGTCTCGGTAACGGTTAGTGCTAG	-0.205 z-score
ATGCTTTACTCACTCGGAAAGTGCTAG	1.24 z-score
TCAGGTTTCCTTTCCCTTTAGTGCTAG	5.36 z-score
GACGGTCTAGGTCTCGGGACGTGCTAG	-0.576 z-score
GACGGGCTGGGGTTTCGGGACGTGCTA	0.142 z-score
GACGGTTACGGGTATCGGGACGTGCTA	-0.151 z-score
TTAGGTTTCGACTTTCGGTTAGTGCTA	10.9 z-score
GACGGTAACCTTCTCCTGACGTGCTAG	0.607 z-score
GACGCACTGGGGTATCGGGACGTGCTA	-0.214 z-score
TTAGAACTGGGGTATAGATTAGTGCTA	-0.151 z-score

For quick reference, copied from above (sample 3):
Strand	bound/input enrichment [ratio]
AGAUUCCCCCUCCUGAGACCUCCUCCGAAGUUGGAGUCUCUUACAGAUGCCUCAUCCCCUGUUAGCGUUUUAGUUUGGACCACCCAGCCUUGGACAAUUCCCGCCAACCAGGCAAUUUGC	0.903
GACCUUUAUGCCAAUGUCCGGCCAUGUGUCUCAAUUGAAGGUUAUAAAACCCCUUACACGGAUGUAAAUAUCGUCACCAUCCGAGAGAACACGGAAGGAGAAUACAGUGGAAUUGAGCAU	0.201
CUUCAGCAAGGUGGCCGCAUGCUCCCUGAGCUCUUCCAGUGUCACGGCUCUGCAGAUAACCUAGUUCUGCAUGCUUGGGGCAAGGAGACAAACUCAAAACUGAAAUCUCUAGGAGUGAGC	0.0973
GUUUUUAGAAGUUAUGAACCUGGUGAACCAAACUGCAGAAUUUAUGUAAAGAAUUUAGCUAGACAUGUUCAGGAAAAGGACCUUAAAUUUAUAUUUGGAAGAUACGUUGACUUUUCUUCA	3.43
UUAAGGAUUCCACUCCACCCUUUUUCUCCUCUUCCAGGAAAGGGAGGUGAAAGAAUUGUAUUUUUCUCCCAGCUCUAAAUCAUCUAUGUGUUAAAUAUCCGUACCGAUCUGUCUUGAAGA	0.337
AAAAAGGAGAAACCUCUUCCAAGACUUAAUAUCCAUUCUGGAUUCUGGAUUUUGGCAUCCAUUGUUGUGACCUAUUAUGUUGACUUCUUUAAAACCCUUAAAGAAAACUUCCACACUAGC	0.442
AACAUUAAUGGAACCUCCUACCCUAGUCUACAGCAGAAAACCAAUGCUGUUAAGAAAUUACAUAAAUGUGAUGAAUGUGGGAAAUCCUUCAAAUAUAAUUCCCGCCUUGUUCAACAUAAA	20.7
